{"data": "Earlier results, collected from citations in different studies", "note": "Compare with care: the assays were run in different laboratories. ± marks the error that the study gave.", "UniProt Q9UBF8, sequence (whole entry, looked up)": "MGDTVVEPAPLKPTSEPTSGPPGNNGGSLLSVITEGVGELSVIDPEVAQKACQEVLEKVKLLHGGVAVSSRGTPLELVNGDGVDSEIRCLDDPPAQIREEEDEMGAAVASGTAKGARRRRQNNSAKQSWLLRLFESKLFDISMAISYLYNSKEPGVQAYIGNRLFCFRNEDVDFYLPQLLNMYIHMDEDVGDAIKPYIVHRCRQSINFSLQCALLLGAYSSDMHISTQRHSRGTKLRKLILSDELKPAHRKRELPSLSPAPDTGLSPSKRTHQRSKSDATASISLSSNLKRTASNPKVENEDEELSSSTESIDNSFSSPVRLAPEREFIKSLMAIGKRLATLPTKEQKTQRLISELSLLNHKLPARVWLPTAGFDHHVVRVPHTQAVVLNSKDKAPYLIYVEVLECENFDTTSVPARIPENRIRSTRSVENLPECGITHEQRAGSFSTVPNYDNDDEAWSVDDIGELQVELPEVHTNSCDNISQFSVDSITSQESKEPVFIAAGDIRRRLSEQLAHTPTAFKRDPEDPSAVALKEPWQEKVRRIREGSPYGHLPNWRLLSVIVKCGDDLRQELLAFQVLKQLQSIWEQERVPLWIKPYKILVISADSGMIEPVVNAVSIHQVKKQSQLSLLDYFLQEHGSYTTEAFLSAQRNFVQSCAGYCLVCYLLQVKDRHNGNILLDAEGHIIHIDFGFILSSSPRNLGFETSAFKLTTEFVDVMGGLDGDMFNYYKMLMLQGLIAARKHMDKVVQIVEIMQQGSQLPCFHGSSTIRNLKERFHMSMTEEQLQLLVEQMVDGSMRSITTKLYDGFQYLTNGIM", "UniProt P15207, sequence (whole entry, looked up)": "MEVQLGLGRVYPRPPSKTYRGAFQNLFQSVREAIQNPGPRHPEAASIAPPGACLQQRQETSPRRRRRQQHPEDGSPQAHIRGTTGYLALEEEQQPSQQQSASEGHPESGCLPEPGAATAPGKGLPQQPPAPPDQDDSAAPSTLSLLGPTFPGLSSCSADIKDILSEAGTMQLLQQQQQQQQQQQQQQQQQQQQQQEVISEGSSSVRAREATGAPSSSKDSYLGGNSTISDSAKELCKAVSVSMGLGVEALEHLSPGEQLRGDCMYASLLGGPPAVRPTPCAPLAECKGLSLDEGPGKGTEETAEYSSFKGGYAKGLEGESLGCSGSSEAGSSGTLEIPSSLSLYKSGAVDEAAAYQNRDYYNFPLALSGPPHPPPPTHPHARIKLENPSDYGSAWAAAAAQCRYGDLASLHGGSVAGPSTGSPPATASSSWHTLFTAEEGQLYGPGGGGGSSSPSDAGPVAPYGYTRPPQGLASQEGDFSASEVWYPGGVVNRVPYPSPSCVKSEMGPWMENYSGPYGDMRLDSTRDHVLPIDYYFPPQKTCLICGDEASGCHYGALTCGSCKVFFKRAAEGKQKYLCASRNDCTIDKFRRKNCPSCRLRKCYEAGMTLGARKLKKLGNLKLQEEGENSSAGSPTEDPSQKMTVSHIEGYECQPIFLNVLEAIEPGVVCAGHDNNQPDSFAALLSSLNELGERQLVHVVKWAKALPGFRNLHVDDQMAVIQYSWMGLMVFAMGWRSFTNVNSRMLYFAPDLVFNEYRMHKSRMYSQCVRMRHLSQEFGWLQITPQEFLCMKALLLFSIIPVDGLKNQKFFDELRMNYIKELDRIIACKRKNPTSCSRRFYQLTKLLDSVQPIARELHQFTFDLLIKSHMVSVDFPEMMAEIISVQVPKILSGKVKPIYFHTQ", "UniProt P30542, sequence (whole entry, looked up)": "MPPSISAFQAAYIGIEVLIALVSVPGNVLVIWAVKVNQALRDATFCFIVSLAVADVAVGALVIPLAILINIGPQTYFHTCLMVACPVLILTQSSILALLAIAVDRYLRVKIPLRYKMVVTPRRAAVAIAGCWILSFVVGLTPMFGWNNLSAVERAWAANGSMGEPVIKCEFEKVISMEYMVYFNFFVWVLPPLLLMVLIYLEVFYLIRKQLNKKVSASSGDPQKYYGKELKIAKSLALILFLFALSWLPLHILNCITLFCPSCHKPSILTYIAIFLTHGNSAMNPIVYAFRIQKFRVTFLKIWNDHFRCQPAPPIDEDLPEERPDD"}
{"SMILES": "FC1(F)C(F)(F)C(F)(F)C2(F)C(F)(C1(F)F)C(F)(F)C(F)(F)C1(F)C(F)(F)C(F)(F)C(F)(F)C(F)(F)C12F (stereo not drawn)", "tested on": "CYP2C19", "test": "inhibitor", "setting": "Tox21 screening", "measurement": "IC50", "value": "inactive"}
{"SMILES": "CC(C)(O/N=C(\\C(=O)N[C@@H]1C(=O)N2C(C(=O)[O-])=C(C[N+]3(CCNC(=O)c4ccc(O)c(O)c4Cl)CCCC3)CS[C@H]12)c1csc(N)n1)C(=O)O", "tested on": "VIM-1", "test": "hydrolysis by enzyme, substrate", "measurement": "Km", "value": "295 µM"}
{"SMILES": "CCCCCc1cc(O)c(C/C=C(\\C)CCC=C(C)C)c(O)c1", "tested on": "CYP3A human", "system": "human liver microsomes", "setting": "10 µM", "measurement": "inhibition", "value": "inhibited"}
{"SMILES": "CC(C)N(N=O)C(C)C", "tested on": "Salmonella typhimurium", "system": "TA100", "setting": "with: rat liver S9", "measurement": "Ames mutagenicity", "value": "positive"}
{"SMILES": "CC(C)(C)CC(C)(C)c1ccc(O)cc1", "tested on": "Androgen receptor (Ar, Rattus norvegicus, UniProt P15207)", "test": "binding", "setting": "concentration not given", "measurement": "activity class", "value": "active"}
{"SMILES": "CN1COCN(Cc2cnc(Cl)s2)/C1=N\\[N+](=O)[O-]", "system": "soil", "setting": "0.37 nominal, 0 days, Folsomia candida soil test", "measurement": "recovery", "value": "84%"}
{"SMILES": "COC(=O)[C@@H]1C[C@H](OC(C)=O)C(=O)[C@H]2[C@@]1(C)CC[C@H]1C(=O)O[C@H](c3ccoc3)C[C@]21C", "tested on": "kappa opioid receptor Y139A", "measurement": "Ki", "value": "53.9 ± 13.9 nM"}
{"SMILES": "Cc1nnc2n1-c1ccc(Cl)cc1C(c1ccccc1Cl)=NC2", "system": "human", "setting": "with: ritonavir", "how to read": "relative to: with over without ritonavir", "measurement": "AUC(0-t) ratio", "value": 40.7}
{"SMILES": "CN(CC(C)(C)C)N=O", "tested on": "Salmonella typhimurium", "system": "TA100", "setting": "concentration not given, with: Aroclor-induced rat liver S9", "measurement": "Ames test result", "value": "positive"}
{"SMILES": "C=C[C@@H]1C[C@]1(NC(=O)[C@@H]1C[C@@H]2CN1C(=O)[C@H](C(C)(C)C)NC(=O)O[C@@H]1C[C@H]1CCCCCc1nc3ccc(OC)cc3nc1O2)C(=O)NS(=O)(=O)C1CC1", "tested on": "UGT1A1", "test": "inhibitor", "measurement": "IC50", "value": "54000 nM"}
{"SMILES": "CCCCCOc1ccc(-c2ccc(-c3ccc(C(=O)N[C@H]4C[C@@H](O)[C@@H](O)NC(=O)[C@@H]5[C@@H](O)[C@@H](C)CN5C(=O)[C@H]([C@@H](C)O)NC(=O)[C@H]([C@H](O)[C@@H](O)c5ccc(O)cc5)NC(=O)[C@@H]5C[C@@H](O)CN5C(=O)[C@H]([C@@H](C)O)NC4=O)cc3)cc2)cc1", "system": "mild hepatic impairment patients", "setting": "50 mg single dose", "measurement": "clearance", "value": "0.93 ± 0.22 L/h"}
{"SMILES": "CCN(CC)N=O", "test": "fingerprint mutation, measured: C>T substitution", "system": "mouse, liver", "setting": "concentration not given", "measurement": "mutation frequency", "value": "increased"}
{"SMILES": "O=C(Nc1cnccc1CO)[C@@H]1COc2ccc(Cl)cc21", "tested on": "main protease (Mpro)", "setting": "20 µM", "measurement": "inhibition", "value": "46.1%"}
{"SMILES": "C=C(C)[C@@H]1CCC(C)=C[C@H]1c1c(O)cc(CCCCC)cc1O", "tested on": "CYP2B6, human", "test": "enzyme activity, inhibitor", "system": "human liver microsomes", "setting": "10 µM", "measurement": "inhibition", "value": "inhibited"}
{"SMILES": "C[C@H](Cc1ccccc1)Nc1ncnc2c1ncn2[C@@H]1O[C@H](CO)[C@@H](O)[C@H]1O", "tested on": "ADORA1 (Homo sapiens, UniProt P30542)", "measurement": "Hill coefficient", "value": 0.9}
{"SMILES": "CC(C)c1cccc(=O)c(O)c1", "system": "rat female", "measurement": "no adverse effect level", "value": "14.8 mg/kg/day"}
{"SMILES": "CCCCCc1cc(O)c2c(c1)OC(C)(C)c1ccc(C)cc1-2", "tested on": "CYP2B6, human", "test": "enzyme activity, inhibitor", "system": "human liver microsomes", "setting": "10 µM", "measurement": "inhibition", "value": "inhibited"}
{"SMILES": "NC1CCCCC1N.O=C([O-])C(=O)[O-].[Pt+2] (stereo not drawn)", "test": "measured: total platinum", "system": "mouse, plasma", "setting": "intravenous, 8.34 mg Pt/kg", "measurement": "Vd", "value": "0.167 L/kg"}
{"SMILES": "Nc1ncc(-c2nc(N3CCOCC3)nc(N3CCOCC3)n2)c(C(F)F)n1", "tested on": "PI4KB (Homo sapiens, UniProt Q9UBF8)", "test": "KinomeScan competition binding", "setting": "10 µM", "measurement": "remaining binding", "value": "75%"}
{"SMILES": "CCCCCc1cc(O)c2c(c1)OC(C)(C)[C@@H]1CCC(C)=C[C@@H]21", "tested on": "CYP3A human", "system": "human liver microsomes", "setting": "10 µM", "measurement": "inhibition", "value": "inhibited"}
{"SMILES": "Clc1ccc(C2CC3CCC2N3)cn1 (stereo not drawn)", "tested on": "SK-N-F1 neuroblastoma", "test": "binding, radioligand binding", "measurement": "Kd", "value": "0.01 nM"}
{"note": "Repeated from above:"}
{"SMILES": "CC(C)(O/N=C(\\C(=O)N[C@@H]1C(=O)N2C(C(=O)[O-])=C(C[N+]3(CCNC(=O)c4ccc(O)c(O)c4Cl)CCCC3)CS[C@H]12)c1csc(N)n1)C(=O)O", "tested on": "VIM-1", "test": "hydrolysis by enzyme, substrate", "measurement": "Km", "value": "295 µM"}
{"SMILES": "CCCCCc1cc(O)c(C/C=C(\\C)CCC=C(C)C)c(O)c1", "tested on": "CYP3A human", "system": "human liver microsomes", "setting": "10 µM", "measurement": "inhibition", "value": "inhibited"}
{"SMILES": "CC(C)N(N=O)C(C)C", "tested on": "Salmonella typhimurium", "system": "TA100", "setting": "with: rat liver S9", "measurement": "Ames mutagenicity", "value": "positive"}
